Measured values pooled from the literature.
Parts stem from different laboratories: compare values within a part only.

Set 1
Target: Interferon regulatory factor 7, full length, phosphomimetic (IRF7, Homo sapiens, UniProt Q92985, residues 1-503, S471D/S472D/S475D/S476D/S477D/S483D/S484D/S487D)
Sequence of UniProt Q92985 (whole entry, unmodified, looked up): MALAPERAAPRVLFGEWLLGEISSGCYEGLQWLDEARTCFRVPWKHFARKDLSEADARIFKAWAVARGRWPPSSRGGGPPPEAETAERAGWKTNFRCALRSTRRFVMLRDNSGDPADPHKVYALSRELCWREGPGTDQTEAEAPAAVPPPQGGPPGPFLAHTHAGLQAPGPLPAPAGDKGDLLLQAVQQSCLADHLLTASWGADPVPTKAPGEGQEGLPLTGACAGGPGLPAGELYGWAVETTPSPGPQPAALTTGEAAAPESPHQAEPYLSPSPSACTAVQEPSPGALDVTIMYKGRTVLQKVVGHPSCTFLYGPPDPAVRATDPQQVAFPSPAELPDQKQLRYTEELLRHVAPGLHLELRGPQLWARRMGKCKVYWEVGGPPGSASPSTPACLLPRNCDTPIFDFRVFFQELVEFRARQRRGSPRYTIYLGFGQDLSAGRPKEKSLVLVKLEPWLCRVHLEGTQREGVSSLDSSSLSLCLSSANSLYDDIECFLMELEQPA
Method: protein-binding microarray
Form: double-stranded DNA, one strand shown
Sample: in vitro
Tested at: 2200 nM top
Setting: 60-bp whole probe
With: salmon DNA 0.4 mg/ml
Relative to: random background probes
Direction: higher = stronger binding
Shared flanks, not repeated: GCCTAGCAC … GTGCTAGGTCTTGATTCGCTTGACGCTGCTG
Strand	fitted relative affinity
GACGGTCGCCTTATCCTGAC	0.517 z-score
TTAGATCTGAGTCTCGATTA	0.3 z-score
TTAGGACTGCTTCTCCTTTT	0.888 z-score
TTAGATCTTAGTTTCGATTA	6.64 z-score
GACGGCCTCCTACTGCTGAC	0.281 z-score
CCCACCTCTCACGGGCTTGT	0.103 z-score
TCACTTCTGGTCTTCTGACT	2.17 z-score

Set 2
Target: Centromere-binding protein 1, full length, His-tagged (CBF1, Saccharomyces cerevisiae, UniProt P17106, residues 1-351)
Sequence of UniProt P17106 (whole entry, looked up): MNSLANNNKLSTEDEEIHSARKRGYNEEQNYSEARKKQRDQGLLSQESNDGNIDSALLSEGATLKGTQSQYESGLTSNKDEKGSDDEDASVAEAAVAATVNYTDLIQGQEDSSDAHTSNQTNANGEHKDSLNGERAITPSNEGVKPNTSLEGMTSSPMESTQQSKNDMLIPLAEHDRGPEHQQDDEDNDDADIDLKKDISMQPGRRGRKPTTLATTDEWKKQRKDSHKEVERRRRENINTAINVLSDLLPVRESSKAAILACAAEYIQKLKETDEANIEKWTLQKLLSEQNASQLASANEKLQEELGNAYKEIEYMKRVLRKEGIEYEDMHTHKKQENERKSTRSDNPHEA
Method: competition protein-binding microarray
Form: double-stranded DNA, one strand shown
Sample: in vitro
Tested at: 2 µM
Setting: whole 60-bp probe, lowest competitor level
With: Pho4 competitor, 0.05 µM
Direction: higher = stronger binding
Shared flanks, not repeated: … GTCTTGATTCGCTTGACGCTGCTG
Strand	fluorescence intensity
TTGAACGACAAGACTCACGTGGTCGAGCTTCTACCA	1940 a.u.
CTAACGAAGGTTTGTTGGGTGGGTGACAAGCCAAGT	73.2 a.u.
GAAGCGTACGCCCATCACGTGACGGAAGTTGCAATG	11500 a.u.
AATTAGAACCCATGTCCCGTGGAAGCGTTTTAAAAG	91.5 a.u.
CTTCTGTAAATTTGCCAGGTGGGTGGACGCGCCCCG	105 a.u.
CTTCTGTAAATTTGCATCGTGGGTGGACGCGCCCCG	84 a.u.

Set 3
Target: Histone acetyltransferase KAT6A, both winged helices, GST fusion (KAT6A, Homo sapiens, UniProt Q92794, residues 1-181)
Method: protein binding microarray
Form: double-stranded DNA, one strand shown
Sample: in vitro
Tested at: not given
Setting: 8-mer, flanks averaged, mean of 2 arrays, mostly near background
Relative to: not given
Direction: higher = stronger binding
Target sequence (chain): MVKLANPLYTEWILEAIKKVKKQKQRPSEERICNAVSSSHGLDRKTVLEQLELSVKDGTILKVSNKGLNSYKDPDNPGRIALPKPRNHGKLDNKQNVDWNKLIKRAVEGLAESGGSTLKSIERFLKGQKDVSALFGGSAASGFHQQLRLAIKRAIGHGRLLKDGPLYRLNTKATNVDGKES
Strand	E-score
TCGATAAA	0.173
CCCGGGCA	0.199
TGCGAAAA	0.104
AATGTTGA	-0.135
AGTGTTGG	-0.0784
AAGACTGG	-0.0504

Single results of other studies
Molecule	target	assay	system	conditions	how to read	measurement	result
PhoQ, residues 284 288 289 292 302 303 AGGCYF	PhoP, residues 12 14 15 18 19 LHHVQ (Escherichia coli, UniProt P23836)	Sort-seq, item: YFP reporter	E. coli	PhoQ-PhoP variant library, with: 10 µM Mg2+	relative to: high Mg2+ state, higher = stronger signaling	fold induction	31.6

A few entries again (set 1):
Strand	fitted relative affinity
GACGGCCTCCTACTGCTGAC	0.281 z-score
CCCACCTCTCACGGGCTTGT	0.103 z-score
